Measured values of several laboratories.
Parts stem from different laboratories: compare values within a part only. Positions count from the first letter of the parent shown.
Chain of UniProt O15294 (whole entry, looked up): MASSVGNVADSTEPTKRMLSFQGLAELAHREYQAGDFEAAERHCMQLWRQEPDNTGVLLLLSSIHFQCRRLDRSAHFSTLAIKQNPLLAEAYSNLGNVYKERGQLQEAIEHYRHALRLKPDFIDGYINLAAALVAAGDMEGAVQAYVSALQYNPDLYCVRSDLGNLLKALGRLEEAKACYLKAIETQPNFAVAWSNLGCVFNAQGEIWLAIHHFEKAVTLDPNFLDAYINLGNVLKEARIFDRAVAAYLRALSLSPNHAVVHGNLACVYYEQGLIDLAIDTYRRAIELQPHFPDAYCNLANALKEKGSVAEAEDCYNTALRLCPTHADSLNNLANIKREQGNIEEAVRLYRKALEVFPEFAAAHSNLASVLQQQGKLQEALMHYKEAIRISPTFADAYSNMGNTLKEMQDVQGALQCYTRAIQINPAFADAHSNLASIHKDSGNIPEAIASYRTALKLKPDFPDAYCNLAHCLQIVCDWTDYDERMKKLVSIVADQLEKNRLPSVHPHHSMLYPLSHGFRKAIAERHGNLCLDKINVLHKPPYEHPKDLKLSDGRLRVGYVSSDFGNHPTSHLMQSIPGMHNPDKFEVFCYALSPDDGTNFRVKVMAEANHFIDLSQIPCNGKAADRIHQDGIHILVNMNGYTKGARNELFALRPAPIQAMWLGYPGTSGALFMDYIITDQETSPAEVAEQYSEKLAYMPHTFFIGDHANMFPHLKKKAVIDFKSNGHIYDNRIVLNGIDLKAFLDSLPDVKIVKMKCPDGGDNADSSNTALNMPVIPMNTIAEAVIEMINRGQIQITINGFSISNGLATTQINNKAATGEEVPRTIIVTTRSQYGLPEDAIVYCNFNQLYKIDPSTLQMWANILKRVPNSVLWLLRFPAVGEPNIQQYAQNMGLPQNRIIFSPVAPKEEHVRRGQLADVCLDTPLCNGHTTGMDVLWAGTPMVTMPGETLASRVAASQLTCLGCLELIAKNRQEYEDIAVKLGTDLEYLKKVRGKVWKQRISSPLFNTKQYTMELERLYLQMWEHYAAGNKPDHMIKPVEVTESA

Series 1
Target: Max dimerization protein 1, bHLH-zipper, MAX partner unstated (MXD1, Homo sapiens, UniProt Q05195, residues 56-136)
Method: protein-binding microarray
Molecule type: double-stranded DNA, one strand shown
Matrix: in vitro
Concentration: not given
Notes: k-mer, scored over probes, only values ≥0.25
Reading: higher = stronger binding
Construct (chain): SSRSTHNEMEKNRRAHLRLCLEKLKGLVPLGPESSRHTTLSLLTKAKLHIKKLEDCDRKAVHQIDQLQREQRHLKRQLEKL
Strand | E-score
AATGTGGT | 0.281
AAACGTGT | 0.36
ACGGGGGA | 0.299
CGAGCACA | 0.288
ACCAGCAT | 0.254
CATGCCTC | 0.368
ACGTGCCC | 0.397
ACCACGCT | 0.386

Series 2
Target: Fragile X messenger ribonucleoprotein 1, C-terminal low-complexity region (Fmr1, Mus musculus, UniProt P35922)
Method: RNA Bind-n-Seq
Molecule type: RNA
Matrix: in vitro
Concentration: 200 nM
Notes: whole 134-nt RNA, ends assumed
With: 150 mM LiCl
Relative to: input library
Reading: higher = stronger binding
All molecules: 7-deaza-guanosine replaces G
Shared flanks, not repeated: GGGAGUUCUACAGUCCGACGAUC … UGGAAUUCUCGGGUGUCAAGG
Strand | log2 enrichment
GUCCUGUGCUACACAUCGUAUGUACCGAAUCGGGAAAAAGGGGAAAAAGGGAAAAAGGGAAAGUAUUAUGUUACGCCGUUCGGAUCUGCA | 0.654
UCCUGUGCUACACAUCGUAUGUACCGAAUCGGGGUUUUUUUGGGGUUUUUGGGGAGGGGAAAGUAUUAUGUUACGCCGUUCGGAUCUGCA | -0.338
AGUCCUGUGCUACACAUCGUAUGUACCGAAUCGGGGUUUGGGGUUUUUGGGGUGGGGAAAGUAUUAUGUUACGCCGUUCGGAUCUGCACU | -0.443
UGGGAGGUGGAUUUUGUUUAUUUUUUUAGGUCAUUUCCAGGGGUGGGAAUUUUUUUUUAAUAUGUGUCAUGAAUAAAGUUGUUUUUGAAA | 0.498
CACAGACAACACGCACCCACACAGACACAGAGGGAAGGGGUUGGGAUGGGGACAGGGUGCACAGCAGGGCGGGGUAGUACCCCAGCCCCU | 1.38
CCUCAAGUCCUGUGCUACACAUCGUAUGUACCGAAUCGGAGGAGGGGAGGGGAAAGUAUUAUGUUACGCCGUUCGGAUCUGCACUUCCAG | -0.174
CUCAAGUCCUGUGCUACACAUCGUAUGUACCGAAUCGGAAAGGAAAGGUUUGGAAAGUAUUAUGUUACGCCGUUCGGAUCUGCACUUCCA | -0.769
CCUGUGCUACACAUCGUAUGUACCGAAUCGGGAAAAAAAGGAAAAAAAGGAAAAAAAGGGAAAGUAUUAUGUUACGCCGUUCGGAUCUGC | -0.627

Mixed results
P1: viral docking peptide; KGVKRKLFAEDSS; partner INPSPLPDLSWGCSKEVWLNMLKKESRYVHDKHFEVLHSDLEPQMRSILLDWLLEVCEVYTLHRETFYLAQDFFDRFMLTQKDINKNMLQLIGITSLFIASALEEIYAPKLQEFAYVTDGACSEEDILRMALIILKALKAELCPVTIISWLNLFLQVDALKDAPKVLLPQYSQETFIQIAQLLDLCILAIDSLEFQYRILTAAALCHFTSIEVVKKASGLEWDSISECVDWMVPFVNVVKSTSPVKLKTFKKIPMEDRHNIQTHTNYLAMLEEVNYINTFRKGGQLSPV
Molecule | target | test | system | setting | how to read | measurement | value
P1 D11M | CCNE2, cyclin fold, Cln2 fusion (human) | yeast growth competition, sequencing | yeast | strong parent motif | relative to: not given, higher = stronger binding | normalised enrichment score | 5.41
HTYYQHQHGQGDRYI | OGT (Homo sapiens, UniProt O15294) | binding, phage display NGS | peptide |  | relative to: input library | minimum log2 enrichment ratio | 1.67

Some of these lines once more (series 2):
Strand | log2 enrichment
CACAGACAACACGCACCCACACAGACACAGAGGGAAGGGGUUGGGAUGGGGACAGGGUGCACAGCAGGGCGGGGUAGUACCCCAGCCCCU | 1.38
AGUCCUGUGCUACACAUCGUAUGUACCGAAUCGGGGUUUGGGGUUUUUGGGGUGGGGAAAGUAUUAUGUUACGCCGUUCGGAUCUGCACU | -0.443
CCUGUGCUACACAUCGUAUGUACCGAAUCGGGAAAAAAAGGAAAAAAAGGAAAAAAAGGGAAAGUAUUAUGUUACGCCGUUCGGAUCUGC | -0.627
